Assay results of several laboratories.
Parts stem from different laboratories: compare values within a part only.
UniProt Q6XUX3, sequence (whole entry, looked up): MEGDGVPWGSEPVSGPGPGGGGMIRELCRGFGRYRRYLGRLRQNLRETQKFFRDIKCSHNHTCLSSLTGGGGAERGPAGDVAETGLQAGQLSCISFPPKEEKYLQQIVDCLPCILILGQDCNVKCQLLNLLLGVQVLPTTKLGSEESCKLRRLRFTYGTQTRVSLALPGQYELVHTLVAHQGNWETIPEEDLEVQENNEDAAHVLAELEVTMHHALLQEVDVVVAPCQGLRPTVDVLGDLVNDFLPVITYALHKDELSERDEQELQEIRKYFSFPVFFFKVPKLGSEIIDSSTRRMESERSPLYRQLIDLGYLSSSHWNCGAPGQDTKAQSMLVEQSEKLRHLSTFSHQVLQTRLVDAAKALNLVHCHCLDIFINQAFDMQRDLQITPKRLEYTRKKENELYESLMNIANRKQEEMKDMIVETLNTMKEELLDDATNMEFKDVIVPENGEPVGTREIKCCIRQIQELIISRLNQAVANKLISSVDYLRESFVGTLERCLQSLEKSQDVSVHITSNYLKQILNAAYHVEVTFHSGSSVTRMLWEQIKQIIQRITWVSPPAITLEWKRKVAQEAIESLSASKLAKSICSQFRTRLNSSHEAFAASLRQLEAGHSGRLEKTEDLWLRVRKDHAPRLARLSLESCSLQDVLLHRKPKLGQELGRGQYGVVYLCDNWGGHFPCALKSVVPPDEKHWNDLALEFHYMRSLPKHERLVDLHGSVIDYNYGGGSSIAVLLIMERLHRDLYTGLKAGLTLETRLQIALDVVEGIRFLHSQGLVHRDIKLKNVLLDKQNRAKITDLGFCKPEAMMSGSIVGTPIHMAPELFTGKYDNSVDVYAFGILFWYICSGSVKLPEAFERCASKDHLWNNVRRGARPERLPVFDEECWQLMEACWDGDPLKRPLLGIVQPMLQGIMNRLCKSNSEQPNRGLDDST
UniProt Q92630, sequence (whole entry, looked up): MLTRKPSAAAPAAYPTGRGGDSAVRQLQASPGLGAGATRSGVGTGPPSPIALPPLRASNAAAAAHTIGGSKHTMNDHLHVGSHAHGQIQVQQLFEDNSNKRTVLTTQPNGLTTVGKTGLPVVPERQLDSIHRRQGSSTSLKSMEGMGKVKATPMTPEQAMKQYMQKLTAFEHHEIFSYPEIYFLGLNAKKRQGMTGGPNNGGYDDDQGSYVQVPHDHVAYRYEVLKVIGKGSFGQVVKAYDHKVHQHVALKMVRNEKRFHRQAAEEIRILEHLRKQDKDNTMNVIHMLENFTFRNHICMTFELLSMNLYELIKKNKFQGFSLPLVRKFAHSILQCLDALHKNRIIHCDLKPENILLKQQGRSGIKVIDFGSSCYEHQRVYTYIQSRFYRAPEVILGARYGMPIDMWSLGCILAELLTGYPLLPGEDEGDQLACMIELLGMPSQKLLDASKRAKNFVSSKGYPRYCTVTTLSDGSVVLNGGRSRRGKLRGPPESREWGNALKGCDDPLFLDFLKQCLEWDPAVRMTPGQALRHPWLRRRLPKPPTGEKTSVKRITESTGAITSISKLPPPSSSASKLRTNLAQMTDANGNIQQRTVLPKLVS

Study 1
Structure (SMILES): O=C1CCC(N2Cc3c(ccc4c3OCC43CCN(Cc4ccccc4)CC3)C2=O)C(=O)N1 (stereo not shown)
Action: degrader
Technique: HiBiT
Cell line: HEK293
Time: 6 h
Quantity: remaining protein
DNA-binding protein Ikaros: DNA-binding protein Ikaros (Homo sapiens, UniProt Q13422)
UniProt Q13422, sequence (whole entry, looked up): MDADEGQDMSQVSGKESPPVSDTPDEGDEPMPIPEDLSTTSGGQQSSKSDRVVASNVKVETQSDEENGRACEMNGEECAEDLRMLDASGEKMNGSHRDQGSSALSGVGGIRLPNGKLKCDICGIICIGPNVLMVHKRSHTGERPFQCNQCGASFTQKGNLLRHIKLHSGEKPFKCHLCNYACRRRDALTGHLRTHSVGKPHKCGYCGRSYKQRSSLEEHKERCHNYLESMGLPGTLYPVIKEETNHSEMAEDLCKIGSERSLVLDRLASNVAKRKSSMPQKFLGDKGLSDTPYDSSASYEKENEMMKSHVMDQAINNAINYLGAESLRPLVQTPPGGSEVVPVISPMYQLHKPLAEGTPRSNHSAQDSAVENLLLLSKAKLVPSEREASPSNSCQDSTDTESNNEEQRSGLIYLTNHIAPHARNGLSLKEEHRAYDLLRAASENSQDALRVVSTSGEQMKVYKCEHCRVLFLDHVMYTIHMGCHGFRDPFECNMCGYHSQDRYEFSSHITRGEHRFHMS
SALL4: Sal-like protein 4 (SALL4, Homo sapiens, UniProt Q9UJQ4)
UniProt Q9UJQ4, sequence (whole entry, looked up): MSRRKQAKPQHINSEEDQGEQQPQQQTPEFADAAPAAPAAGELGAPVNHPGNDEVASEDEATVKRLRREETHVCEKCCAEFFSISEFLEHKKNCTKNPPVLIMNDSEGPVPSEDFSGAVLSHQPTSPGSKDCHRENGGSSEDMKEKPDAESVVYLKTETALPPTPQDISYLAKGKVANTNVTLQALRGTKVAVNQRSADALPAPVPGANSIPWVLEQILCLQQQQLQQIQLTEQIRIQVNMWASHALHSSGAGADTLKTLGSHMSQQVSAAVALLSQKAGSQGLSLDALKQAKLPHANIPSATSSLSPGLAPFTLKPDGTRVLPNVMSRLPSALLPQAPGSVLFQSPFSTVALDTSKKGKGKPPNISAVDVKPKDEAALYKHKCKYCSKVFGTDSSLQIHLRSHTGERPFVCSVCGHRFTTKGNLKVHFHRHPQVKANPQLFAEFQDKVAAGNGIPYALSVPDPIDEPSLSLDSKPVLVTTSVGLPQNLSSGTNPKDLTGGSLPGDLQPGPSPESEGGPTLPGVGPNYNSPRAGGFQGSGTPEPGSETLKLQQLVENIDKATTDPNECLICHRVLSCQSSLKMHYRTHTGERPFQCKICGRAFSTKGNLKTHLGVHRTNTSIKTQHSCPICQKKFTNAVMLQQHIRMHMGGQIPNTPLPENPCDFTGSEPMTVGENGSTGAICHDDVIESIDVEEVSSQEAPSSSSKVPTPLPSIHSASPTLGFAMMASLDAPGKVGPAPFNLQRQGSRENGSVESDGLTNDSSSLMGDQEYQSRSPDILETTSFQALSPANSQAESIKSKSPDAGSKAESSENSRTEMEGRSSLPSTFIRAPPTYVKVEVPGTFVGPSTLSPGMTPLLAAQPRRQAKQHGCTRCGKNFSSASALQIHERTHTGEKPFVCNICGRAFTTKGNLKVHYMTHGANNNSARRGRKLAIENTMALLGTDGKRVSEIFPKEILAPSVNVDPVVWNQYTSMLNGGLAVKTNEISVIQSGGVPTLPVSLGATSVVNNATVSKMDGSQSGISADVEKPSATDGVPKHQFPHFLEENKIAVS
CSNK1A1: Casein kinase I isoform alpha (CSNK1A1, Homo sapiens, UniProt P48729)
UniProt P48729, sequence (whole entry, looked up): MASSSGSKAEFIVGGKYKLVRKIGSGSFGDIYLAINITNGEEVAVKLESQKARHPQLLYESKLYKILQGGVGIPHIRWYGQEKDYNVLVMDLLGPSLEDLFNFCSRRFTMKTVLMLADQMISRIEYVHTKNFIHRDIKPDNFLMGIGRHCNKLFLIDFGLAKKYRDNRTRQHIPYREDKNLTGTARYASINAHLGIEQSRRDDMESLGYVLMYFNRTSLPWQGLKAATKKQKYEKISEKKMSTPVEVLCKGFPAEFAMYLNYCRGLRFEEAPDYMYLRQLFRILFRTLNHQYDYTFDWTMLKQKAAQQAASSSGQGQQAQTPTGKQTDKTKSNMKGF
Zinc finger protein Aiolos: Zinc finger protein Aiolos (Homo sapiens, UniProt Q9UKT9)
UniProt Q9UKT9, sequence (whole entry, looked up): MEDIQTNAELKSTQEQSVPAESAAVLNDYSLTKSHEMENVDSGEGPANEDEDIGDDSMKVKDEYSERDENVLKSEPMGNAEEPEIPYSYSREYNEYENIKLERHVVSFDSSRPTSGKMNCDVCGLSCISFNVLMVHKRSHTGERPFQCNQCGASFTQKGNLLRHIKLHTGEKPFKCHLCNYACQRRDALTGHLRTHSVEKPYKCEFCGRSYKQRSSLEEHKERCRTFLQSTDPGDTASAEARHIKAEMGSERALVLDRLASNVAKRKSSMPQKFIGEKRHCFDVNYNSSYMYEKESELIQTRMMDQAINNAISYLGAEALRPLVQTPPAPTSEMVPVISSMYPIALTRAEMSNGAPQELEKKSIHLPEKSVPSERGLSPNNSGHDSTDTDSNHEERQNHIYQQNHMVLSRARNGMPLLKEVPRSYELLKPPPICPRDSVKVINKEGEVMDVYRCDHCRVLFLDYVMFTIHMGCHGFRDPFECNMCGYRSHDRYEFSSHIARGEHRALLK
GSPT1: Eukaryotic peptide chain release factor GTP-binding subunit ERF3A (GSPT1, Homo sapiens, UniProt P15170)
UniProt P15170, sequence (whole entry, looked up): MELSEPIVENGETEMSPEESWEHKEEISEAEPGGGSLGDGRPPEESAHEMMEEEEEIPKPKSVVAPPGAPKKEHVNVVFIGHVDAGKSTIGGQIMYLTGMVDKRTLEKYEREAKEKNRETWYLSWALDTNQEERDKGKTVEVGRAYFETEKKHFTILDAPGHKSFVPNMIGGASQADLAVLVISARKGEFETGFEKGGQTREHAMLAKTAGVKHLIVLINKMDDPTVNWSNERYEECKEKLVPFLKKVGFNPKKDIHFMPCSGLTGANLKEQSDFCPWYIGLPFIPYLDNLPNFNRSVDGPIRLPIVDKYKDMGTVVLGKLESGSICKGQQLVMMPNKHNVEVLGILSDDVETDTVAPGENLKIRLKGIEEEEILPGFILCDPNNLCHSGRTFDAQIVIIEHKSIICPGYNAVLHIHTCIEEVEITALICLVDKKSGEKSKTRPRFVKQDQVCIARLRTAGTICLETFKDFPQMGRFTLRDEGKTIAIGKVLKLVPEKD
DNA-binding protein Ikaros; 0.01372 µM: 100%
SALL4; 0.0005081 µM: 78.2%
DNA-binding protein Ikaros; 0.3704 µM: 99%
CSNK1A1; 3.333 µM: 104%
DNA-binding protein Ikaros; 0.0005081 µM: 103%
Zinc finger protein Aiolos; 3.333 µM: 105%
CSNK1A1; 0.004572 µM: 106%
GSPT1; 0.001524 µM: 109%
CSNK1A1; 0.0001694 µM: 105%
Zinc finger protein Aiolos; 0.004572 µM: 95%
SALL4; 3.333 µM: 70.8%
GSPT1; 1.111 µM: 110%
Zinc finger protein Aiolos; 0.04115 µM: 106%
SALL4; 0.0001694 µM: 100%
SALL4; 10 µM: 78.2%
DNA-binding protein Ikaros; 10 µM: 107%
SALL4; 0.1235 µM: 80.9%
Zinc finger protein Aiolos; 10 µM: 105%
CSNK1A1; 0.01372 µM: 110%
SALL4; 0.001524 µM: 102%

Study 2
Target: Eukaryotic initiation factor 4A-I (EIF4A1, Homo sapiens, UniProt P60842)
UniProt P60842, sequence (whole entry, looked up): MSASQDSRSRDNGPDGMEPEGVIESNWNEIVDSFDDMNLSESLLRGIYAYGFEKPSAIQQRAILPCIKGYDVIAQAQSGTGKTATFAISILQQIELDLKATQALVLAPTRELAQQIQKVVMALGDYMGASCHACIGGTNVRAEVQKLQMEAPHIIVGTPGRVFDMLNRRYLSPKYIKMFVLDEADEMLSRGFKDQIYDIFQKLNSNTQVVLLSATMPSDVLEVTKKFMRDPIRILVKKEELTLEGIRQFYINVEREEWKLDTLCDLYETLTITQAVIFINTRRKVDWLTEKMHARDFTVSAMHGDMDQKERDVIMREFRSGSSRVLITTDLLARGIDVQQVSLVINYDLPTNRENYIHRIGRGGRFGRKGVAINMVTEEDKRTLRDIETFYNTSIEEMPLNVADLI
Observed: RNA clamping
Technique: fluorescence polarization
Tested at: concentration not given
With: FAM-labelled poly r(AG)8 RNA
Reading: higher = more clamping
Quantity: fluorescence polarization change
CCOC(=O)[C@H]1[C@@H](c2ccccc2)[C@]2(c3ccc(Br)cc3)Nc3cc(OC)cc(OC)c3[C@@]1(O)[C@H]2O: 14.8 mP
COc1cc(OC)c2c(c1)O[C@@]1(c3ccc(Br)cc3)[C@H](c3ccccc3)[C@@H](C(=O)N(C)C)[C@@H](O)[C@@]21O: 87.4 mP
COC(=O)[C@@H]1[C@@H](c2ccccc2)[C@]2(c3ccc(OC)cc3)Oc3cc(OC)cc(OC)c3[C@@]23NC(C(C)(C)C)=N[C@@]13O: 64.5 mP
COc1ccc([C@@]23Oc4cc(OC)cc(OC)c4[C@]2(O)[C@H](O)[C@H](C(=O)N(C)OC)[C@H]3c2ccccc2)cc1: 90.8 mP
COC(=O)[C@@H]1[C@@H](c2ccccc2)[C@]2(c3ccc(OC)cc3)Oc3cc(OC)cc(OC)c3[C@@]23OC(c2ccc(Cl)cc2)=N[C@@]13O: -0.4 mP
COc1ccc([C@@]23Oc4cc(OC)cc(OC)c4[C@@]24NC(C)=N[C@@]4(O)[C@H](C(=O)N(C)C)[C@H]3c2ccccc2)cc1: 92.4 mP
COC(=O)[C@@H]1[C@@H](c2ccccc2)[C@]2(c3ccc(OC)cc3)Oc3cc(OC)cc(OC)c3[C@@]23OC(c2ccc(F)cc2)=N[C@@]13O: 18.4 mP
COc1ccc([C@@]23Oc4cc(OC)cc(OC)c4[C@]2(O)c2nc(-c4ccc(O)cc4)[nH]c(=O)c2[C@H]3c2ccccc2)cc1: 23.2 mP
COC(=O)[C@@H]1[C@@H](c2ccccc2)[C@]2(c3ccc(OC)cc3)Oc3cc(OC)cc(OC)c3[C@@]23OC(c2ccccc2)=N[C@@]13O: -7.7 mP

Study 3
SMILES: CCn1cnc2c(Nc3cccc(Cl)c3)nc(N[C@H]3CCCC[C@H]3N)nc21
Observed: enzyme activity
Action: inhibitor
Tested at: 0.5 µM
Relative to: control
Quantity: remaining activity
PLK1 (Homo sapiens, UniProt P53350): 86%
DYRK2 (Homo sapiens, UniProt Q92630): 107%
DSTYK (Homo sapiens, UniProt Q6XUX3): 97.8%
RAF1 (Homo sapiens, UniProt P04049): 92.8%
VRK1 (Homo sapiens, UniProt Q99986): 103%
PRKD3 (Homo sapiens, UniProt O94806): 90.6%
ACVR1 (Homo sapiens, UniProt Q04771): 92.7%
INSRR (Homo sapiens, UniProt P14616): 90.7%
NTRK2 (Homo sapiens, UniProt Q16620): 55.3%

Study 4
Target: DNA polymerase theta, ATPase domain (POLQ, Homo sapiens, UniProt O75417)
Observed: enzyme activity
Action: inhibitor
Tested at: 77 µM
Relative to: untreated
Quantity: remaining activity
C[N+](C)(C)CC#CCN1CCCC1=O: 94.7%
OC1CCCCC1N1CCC(c2ccccc2)CC1 (stereo not shown): 102%
C[N+](C)(C)CCOC(=O)CBr: 99%
COC1=C[C@@H]2[C@@H]3Cc4ccc(OC)c(O)c4[C@]2(CCN3C)CC1=O: 93.6%
CC1=C2[C@H]3OC(=O)[C@@H](C)[C@@H]3CC[C@@]2(C)C=CC1=O: 103%

A few entries again (study 3):
ACVR1 (Homo sapiens, UniProt Q04771): 92.7%
PRKD3 (Homo sapiens, UniProt O94806): 90.6%
NTRK2 (Homo sapiens, UniProt Q16620): 55.3%
VRK1 (Homo sapiens, UniProt Q99986): 103%
PLK1 (Homo sapiens, UniProt P53350): 86%
INSRR (Homo sapiens, UniProt P14616): 90.7%
DYRK2 (Homo sapiens, UniProt Q92630): 107%
